Assay results gathered from unrelated publications.
Each line is one published result; not all experiments were run side by side. Numbers after ± are the reported error.
Aminopeptidase N: Aminopeptidase N (Neisseria meningitidis, UniProt Q9JYV4)
UniProt P0A6Y8, sequence (whole entry, looked up): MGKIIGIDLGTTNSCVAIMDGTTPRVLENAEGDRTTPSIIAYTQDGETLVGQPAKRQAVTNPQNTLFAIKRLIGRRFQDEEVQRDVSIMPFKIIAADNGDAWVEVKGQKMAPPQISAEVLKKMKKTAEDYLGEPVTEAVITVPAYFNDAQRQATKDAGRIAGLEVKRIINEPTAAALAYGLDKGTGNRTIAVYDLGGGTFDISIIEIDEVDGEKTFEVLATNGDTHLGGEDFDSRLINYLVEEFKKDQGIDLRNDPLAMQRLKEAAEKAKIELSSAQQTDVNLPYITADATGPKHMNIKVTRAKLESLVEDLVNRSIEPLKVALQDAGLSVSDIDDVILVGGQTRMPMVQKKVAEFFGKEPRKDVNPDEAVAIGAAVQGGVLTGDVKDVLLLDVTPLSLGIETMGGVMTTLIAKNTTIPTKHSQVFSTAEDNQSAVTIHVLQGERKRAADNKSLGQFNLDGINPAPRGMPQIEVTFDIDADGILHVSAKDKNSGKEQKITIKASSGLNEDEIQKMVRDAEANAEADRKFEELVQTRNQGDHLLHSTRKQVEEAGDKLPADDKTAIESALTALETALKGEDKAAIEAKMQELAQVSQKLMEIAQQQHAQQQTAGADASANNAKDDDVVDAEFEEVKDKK
UniProt P33533, sequence (whole entry, looked up): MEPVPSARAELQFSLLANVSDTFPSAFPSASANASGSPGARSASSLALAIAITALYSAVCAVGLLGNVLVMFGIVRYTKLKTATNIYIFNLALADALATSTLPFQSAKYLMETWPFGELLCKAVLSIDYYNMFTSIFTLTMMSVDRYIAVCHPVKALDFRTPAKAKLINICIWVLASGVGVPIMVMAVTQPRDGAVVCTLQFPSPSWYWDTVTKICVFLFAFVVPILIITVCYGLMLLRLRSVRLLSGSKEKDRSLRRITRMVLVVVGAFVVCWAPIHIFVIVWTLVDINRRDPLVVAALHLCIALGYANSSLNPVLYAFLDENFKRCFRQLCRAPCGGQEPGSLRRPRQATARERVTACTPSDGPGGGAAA
UniProt O43741, sequence (whole entry, looked up): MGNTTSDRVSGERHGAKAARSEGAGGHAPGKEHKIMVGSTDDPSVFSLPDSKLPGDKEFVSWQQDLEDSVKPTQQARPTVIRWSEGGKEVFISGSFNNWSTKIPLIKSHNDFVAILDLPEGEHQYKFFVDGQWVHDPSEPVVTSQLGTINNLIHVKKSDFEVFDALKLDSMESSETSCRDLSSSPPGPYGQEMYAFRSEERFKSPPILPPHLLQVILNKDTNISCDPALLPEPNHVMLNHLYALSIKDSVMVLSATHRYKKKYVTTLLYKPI
UniProt P31645, sequence (whole entry, looked up): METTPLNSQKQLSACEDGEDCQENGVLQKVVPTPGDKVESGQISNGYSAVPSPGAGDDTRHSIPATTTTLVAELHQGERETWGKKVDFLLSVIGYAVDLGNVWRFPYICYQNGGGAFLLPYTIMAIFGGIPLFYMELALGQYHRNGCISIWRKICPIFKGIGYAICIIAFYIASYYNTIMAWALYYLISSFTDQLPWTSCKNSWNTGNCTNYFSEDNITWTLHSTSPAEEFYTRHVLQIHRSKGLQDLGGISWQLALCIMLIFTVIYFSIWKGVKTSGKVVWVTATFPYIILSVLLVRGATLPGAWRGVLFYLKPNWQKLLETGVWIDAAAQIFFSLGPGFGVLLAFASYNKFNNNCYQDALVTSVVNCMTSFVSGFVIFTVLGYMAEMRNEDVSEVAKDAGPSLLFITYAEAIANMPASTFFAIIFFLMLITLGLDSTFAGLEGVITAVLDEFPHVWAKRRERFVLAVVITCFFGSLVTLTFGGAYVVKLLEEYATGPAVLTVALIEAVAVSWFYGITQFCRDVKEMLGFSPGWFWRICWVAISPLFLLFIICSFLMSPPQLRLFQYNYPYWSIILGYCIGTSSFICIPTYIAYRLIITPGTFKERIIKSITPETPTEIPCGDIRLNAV
UniProt P78325, sequence (whole entry, looked up): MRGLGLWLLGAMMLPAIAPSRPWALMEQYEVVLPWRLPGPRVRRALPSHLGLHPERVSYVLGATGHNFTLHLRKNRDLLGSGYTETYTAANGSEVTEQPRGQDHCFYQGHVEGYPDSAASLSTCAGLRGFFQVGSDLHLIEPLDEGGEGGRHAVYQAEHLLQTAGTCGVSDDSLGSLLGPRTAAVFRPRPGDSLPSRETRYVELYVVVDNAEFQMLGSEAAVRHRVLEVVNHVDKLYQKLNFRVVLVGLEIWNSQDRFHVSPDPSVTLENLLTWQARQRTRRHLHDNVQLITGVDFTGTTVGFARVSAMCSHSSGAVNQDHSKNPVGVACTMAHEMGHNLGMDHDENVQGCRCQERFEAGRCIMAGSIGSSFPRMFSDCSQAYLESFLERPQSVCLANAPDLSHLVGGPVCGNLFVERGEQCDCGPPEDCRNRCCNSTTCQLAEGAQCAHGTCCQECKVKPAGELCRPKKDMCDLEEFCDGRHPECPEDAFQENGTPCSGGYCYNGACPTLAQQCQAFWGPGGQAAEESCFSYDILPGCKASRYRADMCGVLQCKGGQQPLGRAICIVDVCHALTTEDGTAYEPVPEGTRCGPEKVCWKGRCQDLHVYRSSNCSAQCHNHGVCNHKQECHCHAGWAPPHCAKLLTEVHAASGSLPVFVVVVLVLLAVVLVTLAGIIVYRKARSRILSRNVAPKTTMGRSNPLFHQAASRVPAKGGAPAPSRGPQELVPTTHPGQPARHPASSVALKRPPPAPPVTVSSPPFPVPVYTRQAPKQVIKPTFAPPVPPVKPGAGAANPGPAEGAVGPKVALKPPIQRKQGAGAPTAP
UniProt P14416, sequence (whole entry, looked up): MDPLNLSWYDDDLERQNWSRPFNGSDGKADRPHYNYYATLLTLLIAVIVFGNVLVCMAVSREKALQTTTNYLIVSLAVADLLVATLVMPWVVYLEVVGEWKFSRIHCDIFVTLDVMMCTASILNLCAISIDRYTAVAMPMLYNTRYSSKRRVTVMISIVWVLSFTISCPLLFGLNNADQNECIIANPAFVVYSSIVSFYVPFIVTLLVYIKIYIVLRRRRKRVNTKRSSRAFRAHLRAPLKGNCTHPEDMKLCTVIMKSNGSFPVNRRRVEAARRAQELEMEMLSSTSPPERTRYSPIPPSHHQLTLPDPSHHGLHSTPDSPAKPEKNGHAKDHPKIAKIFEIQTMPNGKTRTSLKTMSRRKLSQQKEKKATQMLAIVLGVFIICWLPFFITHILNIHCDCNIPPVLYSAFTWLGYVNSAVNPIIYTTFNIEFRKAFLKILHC
UniProt P41143, sequence (whole entry, looked up): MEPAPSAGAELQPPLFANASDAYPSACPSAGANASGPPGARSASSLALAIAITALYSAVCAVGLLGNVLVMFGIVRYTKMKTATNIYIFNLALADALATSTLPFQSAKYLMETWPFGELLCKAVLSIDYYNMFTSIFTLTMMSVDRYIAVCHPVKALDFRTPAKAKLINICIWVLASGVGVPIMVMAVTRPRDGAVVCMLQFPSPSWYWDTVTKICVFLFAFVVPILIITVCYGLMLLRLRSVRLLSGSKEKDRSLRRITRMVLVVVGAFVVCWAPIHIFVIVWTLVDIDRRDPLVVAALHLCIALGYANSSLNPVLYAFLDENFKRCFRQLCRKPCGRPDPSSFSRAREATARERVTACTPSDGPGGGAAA
UniProt O75475, sequence (whole entry, looked up): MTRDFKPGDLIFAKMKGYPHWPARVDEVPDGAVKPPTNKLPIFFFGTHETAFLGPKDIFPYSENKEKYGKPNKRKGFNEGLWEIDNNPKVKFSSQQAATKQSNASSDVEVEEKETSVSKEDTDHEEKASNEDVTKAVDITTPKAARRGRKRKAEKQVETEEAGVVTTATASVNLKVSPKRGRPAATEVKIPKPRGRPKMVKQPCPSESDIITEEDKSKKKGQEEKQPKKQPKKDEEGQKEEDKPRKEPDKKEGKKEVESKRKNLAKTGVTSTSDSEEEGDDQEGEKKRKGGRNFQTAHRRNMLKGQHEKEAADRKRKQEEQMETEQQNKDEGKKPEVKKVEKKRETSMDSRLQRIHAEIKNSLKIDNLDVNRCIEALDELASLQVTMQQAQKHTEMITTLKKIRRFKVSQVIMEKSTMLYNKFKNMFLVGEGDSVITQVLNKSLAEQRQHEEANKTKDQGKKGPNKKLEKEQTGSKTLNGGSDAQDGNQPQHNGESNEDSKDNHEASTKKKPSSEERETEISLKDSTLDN

Structure (SMILES) | target | test | system | conditions | how to read | measurement | result
CS(C)(=O)=Nc1ccc(-c2ccc(-c3nc4cc(O[C@@H]5CO[C@H]6[C@@H]5OC[C@H]6O)[nH]c4cc3F)cc2)cc1 | PRKAB2/PRKAA1, with gamma2 subunit (Homo sapiens, UniProt O43741+Q13131) | enzyme activity, activator |  | 60 min, 50% above basal activity, together with: ATP 50 µM |  | EC150 | 0.876 nM
CC(=O)NC(Cc1ccc(Br)c(Cl)c1)C(=O)N[C@@H](C)C(=O)N1CCC[C@H]1C(=O)N1CCC[C@H]1C(=O)N[C@@H](CCC(=O)O)C(=O)N[C@@H](Cc1c[nH]cn1)C(=O)N[C@@H](CO)C(=O)N[C@H](C(=O)N[C@@H](C)C(N)=O)[C@@H](C)OP(=O)(O)O (stereo partly shown) | FGFR1 (Homo sapiens, UniProt P11362) | cell-free assay, inhibitor |  | 10 µM |  | inhibition | 0.74%
COC(=O)c1ccc(OC(=O)C2CCN(C(=O)OC(C)(C)C)CC2)cc1 | clpP (Staphylococcus aureus, UniProt Q2G036) | enzyme activity, inhibitor |  |  |  | inhibitory concentration | < 1 µM
COC(=O)C1C(OC(c2ccc(Cl)cc2)c2ccc(Cl)cc2)CC2CCC1N2C (single isomer, unassigned) | DRD2 (Homo sapiens, UniProt P14416) | binding, radioligand displacement |  | inactive if below 75% at 10000 nM |  | Ki | inactive
CCN(Cc1ccccc1)C(=O)CCc1nc(CN2CCN(C(=O)Cc3ccc(OC)c(OC)c3)CC2)no1 | Scn10a (Rattus norvegicus, UniProt Q62968) | whole-cell patch clamp | rat DRG neurons | 100 nM |  | V1/2 of inactivation | -54.4 ± 1.23 mV
CCC(CC)OC1C=C(C(=O)OC(C)OC(=O)C(N)C(C)C)CC(NC(=N)N)C1NC(C)=O (mixture of isomers) | BPHL (Homo sapiens, UniProt Q86WA6) | hydrolysis, substrate |  | pH 7.4 |  | Vmax | 19.4 nmol/min/µg
CC(C)C[C@@H]1NC(=O)[C@H](CCCNC(=N)N)NC(=O)[C@H](CCCCN)NC(=O)[C@H](CC(=O)O)NC(=O)[C@H](CCCCN)NC(=O)[C@@H](CO)NC1=O | Disintegrin and metalloproteinase domain-containing protein 8 (Homo sapiens, UniProt P78325) |  | COS-7, transfected with target and CD23, supernatant | 500 nM, 12 h |  | soluble CD23 level | not detected
COc1cc2ccnc(Cc3ccc(O[11CH3])c(OC)c3)c2cc1OC | Pde10a (Rattus norvegicus, UniProt Q9QYJ6) | autoradiography | rat brain sections | 9 nM, 30 min, 25 °C |  | non-striatal binding | no binding
OC(COCc1ccccc1Cl)CN1CC=C(c2c[nH]c3ccccc23)CC1 (racemic) | SLC6A4 (Homo sapiens, UniProt P31645) |  | HEK293 expressing SLC6A4 | concentration not given, together with: [3H]serotonin | relative to: MI-17 | uptake inhibition potency fold increase | 3 fold
C#CC[C@H](N)C(=O)Nc1ccc2c(CC(N)=O)cc(=O)oc2c1 | Aminopeptidase N | enzyme activity, substrate |  | pH 7.5, 37 °C |  | Km | 121 ± 2.3 µM
COc1ccccc1CN(CCC(C)C)c1nc(C#N)nc(N2CCOCC2)n1 | CPL (Toxoplasma gondii, UniProt Q6DMN0) | enzyme activity, inhibitor |  |  | relative to: human over Toxoplasma IC50 | selectivity ratio | 0.07
CC(C)CC[C@H](N)C(=O)Nc1ccc2c(CC(N)=O)cc(=O)oc2c1 | Aminopeptidase N | enzyme activity, substrate |  | pH 7.5, 37 °C |  | Km | 56.9 ± 1.8 µM
CC(=O)NCC(=O)NCC(=O)N[C@@H](CCCCNP(=O)(O)O)C(=O)NCC(=O)NCC(N)=O | Phospholysine phosphohistidine inorganic pyrophosphate phosphatase (LHPP, Homo sapiens, UniProt Q9H008) | substrate |  | 100 µM, pH 7.8 |  | initial velocity | 1.97e-08 M/s
N[C@@H](Cc1ccc(C(=O)NCCc2ccc3ccccc3c2)cc1)C(=O)N1Cc2ccccc2C[C@H]1C(=O)N[C@@H](Cc1ccccc1)C(=O)N[C@@H](Cc1ccccc1)C(=O)O | OPRD1 (Homo sapiens, UniProt P41143) | agonist | HEK293 cells expressing OPRD1 |  |  | EC50 | 0.475 nM
CC[C@H](C)[C@H](NC(=O)[C@H](C)NC(=O)[C@H](CCCNC(=N)N)NC(=O)[C@@H](NC(=O)[C@H](CCCCN)NC(=O)[C@H](CC(N)=O)NC(=O)[C@H](CCCNC(=N)N)NC(=O)[C@@H](NC(=O)[C@@H](NC(=O)[C@H](CCC(=O)O)NC(=O)[C@H](CCCCN)NC(=O)[C@H](CCCNC(=N)N)NC(=O)[C@H](C)NC(=S)Nc1ccc2c(c1)C(=O)OC21c2ccc(O)cc2Oc2cc(O)ccc21)[C@@H](C)CC)[C@@H](C)CC)[C@@H](C)CC)C(=O)NCC(=O)N[C@@H](CCCCN)C(=O)N[C@@H](CCSC)C(=O)N[C@@H](C)C(=O)N[C@@H](CCCNC(=N)N)C(=O)N[C@H](C(=O)N[C@@H](Cc1ccccc1)C(=O)N[C@@H](CO)C(=O)N[C@H](C(=O)N[C@@H](CC(C)C)C(=O)N[C@@H](CCCNC(=N)N)C(=O)O)C(C)C)C(C)C | Calmodulin, N-terminal domain (CAM, Paramecium tetraurelia, UniProt P07463) | binding, fluorescence anisotropy | Paramecium |  | relative to: Ca2+-saturated over apo | Kd ratio | ~100 fold
CC(C)C[C@H](NC(=O)[C@H](CCCCN)NC(=O)[C@H](CC(C)C)NC(=O)[C@]1(C)CCCC=CCCC[C@](C)(N)C(=O)N[C@@H](C)C(=O)N[C@@H](Cc2ccc(O)cc2)C(=O)N[C@@H](Cc2ccccc2)C(=O)N1)C(=O)N[C@@H](C)C(=O)NCC(=O)N[C@@H](CCCNC(=N)N)C(=O)N[C@@H](Cc1c[nH]c2ccccc12)C(N)=O | PC4 and SFRS1-interacting protein, with HIV integrase (Homo sapiens, UniProt O75475) |  |  | concentration not given, HIV-1 context |  | activity | inactive
CC[C@H](C)[C@H](NC(=O)[C@H](Cc1c[nH]cn1)NC(=O)[C@H](CCCCNC(=O)[C@@H](NC(=O)[C@H](CCCCN)NC(=O)CSC[C@H](NC(=O)[C@H](Cc1ccccc1)NC(=O)[C@H](CCCCNC(=O)[C@H](CC(C)C)NC(=O)[C@@H]1CCCN1C(=O)[C@H](CCCCN)NC(=O)c1ccc(O[C@@H]2O[C@H](CO)[C@H](O)[C@H](O)[C@H]2O)cc1)NC(=O)[C@H](CC(C)C)NC(=O)[C@@H]1CCCN1C(=O)[C@H](CCCCN)NC(=O)C[C@@H]1O[C@@H](C)[C@@H](O)[C@@H](O)[C@@H]1O)C(N)=O)[C@@H](C)CC)NC(=O)[C@@H](NC(=O)[C@H](CCCCN)NC(=O)CSC[C@H](NC(=O)[C@H](Cc1ccccc1)NC(=O)[C@H](CCCCNC(=O)[C@H](CC(C)C)NC(=O)[C@@H]1CCCN1C(=O)[C@H](CCCCN)NC(=O)c1ccc(O[C@@H]2O[C@H](CO)[C@H](O)[C@H](O)[C@H]2O)cc1)NC(=O)[C@H](CC(C)C)NC(=O)[C@@H]1CCCN1C(=O)[C@H](CCCCN)NC(=O)C[C@@H]1O[C@@H](C)[C@@H](O)[C@@H](O)[C@@H]1O)C(N)=O)[C@@H](C)CC)C(N)=O | lecB (Pseudomonas aeruginosa, UniProt Q9HYN5) | binding, isothermal titration calorimetry |  | divided by fucoside copies | relative to: monovalent fucoside KD over ligand KD | relative potency per fucoside | 1.4
CC(C)C[C@H](NC(=O)[C@H](CCC(=O)O)NC(=O)[C@H](C)NC(=O)[C@H](CCC(=O)O)NC(=O)[C@H](CCC(=O)O)NC(=O)[C@H](Cc1c[nH]cn1)NC(=O)[C@H](CCCNC(=N)N)NC(=O)[C@H](CCC(=O)O)NC(=O)[C@H](CC(N)=O)NC(=O)[C@H](CCCCN)NC(=O)[C@H](CC(C)C)NC(=O)[C@H](CCCNC(=N)N)NC(=O)[C@H](CCC(N)=O)NC(=O)[C@H](CC(C)C)NC(=O)[C@H](CCC(N)=O)NC(=O)[C@H](C)NC(=O)[C@H](CC(N)=O)NC(=O)[C@H](C)NC(=O)[C@@H](NC(=O)[C@H](CC(C)C)NC(=O)[C@H](CCCCN)NC(=O)[C@H](CCC(=O)O)NC(=O)[C@@H](NC(=O)[C@H](CO)NC(=O)CN)C(C)C)[C@@H](C)O)C(=O)N[C@@H](CCC(=O)O)C(=O)N[C@@H](CCCNC(=N)N)C(=O)N[C@@H](CC(C)C)C(=O)N[C@@H](CCCCN)C(=O)N[C@@H](CO)C(=O)N[C@@H](CCC(=O)O)C(=O)N[C@@H](Cc1ccc(O)cc1)C(=O)O | Plasminogen (PLG, Homo sapiens, UniProt P00747, C188G/E240D/L256Y) | binding, SPR |  | pH 7.4 |  | koff | 0.086 s⁻¹
Cc1cc(O)cc(C)c1CC(N)C(=O)NC1CCNc2c1cc(Cc1ccccc1)cc2C(F)(F)F (stereo not shown) | Oprd1 (Rattus norvegicus, UniProt P33533) | GTPγS binding, agonist | C6 cells expressing DOR |  | relative to: DPDPE at 10 µM | maximal stimulation | 42%
CC[C@H](C)[C@H](NC(=O)[C@H](CC(N)=O)NC(=O)[C@H](CC(N)=O)NC(=O)[C@@H](N)CCCNC(N)=O)C(=O)N1C[C@@H](n2cc([C]34[CH]5[CH]6[CH]7[CH]3[Fe]6754389%10[CH]4[CH]3[CH]8[CH]9[CH]4%10)nn2)C[C@H]1C(=O)N[C@@H](Cc1c[nH]c2ccccc12)C(=O)N[C@@H](CO)C(N)=O (stereo partly shown) | env (Human immunodeficiency virus type 1 group M subtype B, UniProt P35961) | ITC |  | pH 7.4, 25 °C |  | binding free energy | -43.9 ± 3.35 kJ/mol
CC(C)C[C@@H](NC(=O)[C@@H](CCCCN)NC(=O)[C@@H](CCCCN)NC(=O)CNC(=O)[C@@H](CCCNC(=N)N)NC(=O)[C@H](N)CCCNC(=N)N)C(=O)N[C@H](CC(C)C)C(=O)N[C@H](CC(C)C)C(=O)N[C@H](CC(C)C)C(=O)N[C@H](CC(C)C)C(=O)N[C@H](CCCCN)C(=O)N[C@H](CCCCN)C(=O)N[C@H](CCCCN)C(=O)NCC(=O)O | dnaK, ADP-bound (Escherichia coli, UniProt P0A6Y8) | native gel shift |  | 50 µM, ADP-bound DnaK |  | fraction client-bound | 0 ± 0.05
Nc1nc2c([C@@H]3O[C@@H]4COP(=O)(O)O[C@H]5[C@@H](O)[C@H](c6snc7c(=O)[nH]c(N)nc67)O[C@@H]5COP(=O)(O)O[C@H]4[C@H]3O)snc2c(=O)[nH]1 | rocR (Pseudomonas aeruginosa, UniProt Q9HX69) | substrate, HPLC |  | 10 µM, together with: 100 nM enzyme |  | cleavage rate constant k2 | 0.83 ± 0.55 s⁻¹

For quick reference, copied from above:
Structure (SMILES) | target | test | system | conditions | how to read | measurement | result
CCN(Cc1ccccc1)C(=O)CCc1nc(CN2CCN(C(=O)Cc3ccc(OC)c(OC)c3)CC2)no1 | Scn10a (Rattus norvegicus, UniProt Q62968) | whole-cell patch clamp | rat DRG neurons | 100 nM |  | V1/2 of inactivation | -54.4 ± 1.23 mV
CCC(CC)OC1C=C(C(=O)OC(C)OC(=O)C(N)C(C)C)CC(NC(=N)N)C1NC(C)=O (mixture of isomers) | BPHL (Homo sapiens, UniProt Q86WA6) | hydrolysis, substrate |  | pH 7.4 |  | Vmax | 19.4 nmol/min/µg
CC(C)C[C@@H]1NC(=O)[C@H](CCCNC(=N)N)NC(=O)[C@H](CCCCN)NC(=O)[C@H](CC(=O)O)NC(=O)[C@H](CCCCN)NC(=O)[C@@H](CO)NC1=O | Disintegrin and metalloproteinase domain-containing protein 8 (Homo sapiens, UniProt P78325) |  | COS-7, transfected with target and CD23, supernatant | 500 nM, 12 h |  | soluble CD23 level | not detected
